Assay results pooled from the literature.
± gives the spread as reported. ≈ marks a conversion by molar mass, not a printed value.

Compound	target or system	test	system	conditions	scale	measurement	result
CC(C)(O)c1ccn2c(-c3ccc(F)c(-c4ccc(F)cc4C#N)c3)cnc2c1F	GABAA receptor α1 G251D human	proximity ligation, refers to: BiP, calnexin, LMAN1	hiPSC-derived GABAergic neurons α1 G251D	5 µM, 24 h, together with: hispidulin 10 µM		protein interaction	increased
O=C(N/N=C/c1ccc2c(ccc[n+]2Cc2ccccc2)c1)c1ccc2ccc(C(=O)N/N=C/c3ccc4c(ccc[n+]4Cc4ccccc4)c3)nc2n1	myc22 MYC G4-DNA parallel	FRET melting		1 µM, K1 buffer, DNA 0.2 µM, together with: ds26 10 µM		ΔTm	14.3 ± 0.7 °C
CN1CCC[C@]1(C)/C=C/S(=O)(=O)NC(=O)Nc1c2c(cc3c1CCC3)CCC2			human, whole blood ex vivo	50 mg twice daily, day 1, 3 h, multiple ascending dose, together with: LPS and ATP		IL-1β inhibition	99.5%
CN1CCCNC(=O)c2cccc(c2)C(=O)NCCCN(C)CCCNc2cccc3c2C(=O)c2cccc(c2C3=O)NCCC1	SAS	RNA-Seq, refers to: GLS mRNA		1 µM, 6 h	reference: untreated cells	log2 fold change	-1.3
CC[n+]1cccc2cc(/C=N/NC(=O)C(=O)N/N=C/c3ccc4c(ccc[n+]4CC)c3)ccc21	myc22 MYC G4-DNA parallel	FRET melting		1 µM, K1 buffer, DNA 0.2 µM, together with: ds26 10 µM		ΔTm	4.6 ± 0.4 °C
Nc1ncc(-c2cc(-c3cnn(CC(F)(F)F)c3)ncc2F)nc1C(=O)NC1CNCC(F)C1 (centres unmarked)	LRRK2	KINOMEscan		1 µM	reference: DMSO control	remaining binding	100%
CNS(=O)(=O)Nc1nccc(Cc2c(C)c3ccc(Oc4ncccc4F)cc3oc2=O)c1F	WSUDLCL2	cell viability		7 days		IC50	> 1000 nM
C[N+](C)(C)CCO.O=C([O-])C(Cl)Cl	Amaranthus retroflexus	herbicidal activity		15 mg/mL, 21 days, pre-emergence greenhouse		inhibition	0%
CCN(CC)CC(=O)Nc1cccc(-n2cc(-c3ccc4ccc(-c5cn(-c6cccc(NC(=O)CN(CC)CC)c6)nn5)cc4c3)nn2)c1	RCC4	PCR array, refers to: LEP		5 x IC50, 2 h, normoxia	reference: untreated	fold regulation	1.1
O=C(N/N=C/c1ccc(C[n+]2ccccc2)cc1)c1cccc(C(=O)N/N=C/c2ccc(C[n+]3ccccc3)cc2)n1	myc22 MYC G4-DNA parallel	FRET melting		1 µM, K1 buffer, DNA 0.2 µM		ΔTm	8.6 ± 0.4 °C
CC(CCC(=O)NCc1ccc(C(=O)NO)cc1)C1CCC2C3C(O)CC4CC(O)CCC4(C)C3CCC12C (centres unmarked)		refers to: TUDCA	PCK rat (Pkhd1 mutant), portal blood	oral gavage, dose not given, 5 months	reference: total bile acids	relative abundance	5.15%
CC(=O)[O-].O.O.O.O.[Ni+2].[O-]c1ccc(Br)cc1C=NCCN1CCOCC1		nitric oxide scavenging		160 µM		inhibition	35.8%
C[n+]1ccc(/C=N/NC(=O)c2cncc(C(=O)N/N=C/c3cc[n+](C)c4ccccc34)n2)c2ccccc21	myc22 MYC G4-DNA parallel	FRET melting		1 µM, K1 buffer, DNA 0.2 µM, together with: ds26 10 µM		ΔTm	20.1 ± 0.2 °C
Cc1ncsc1-c1ccc(C(C)NC(=O)C2CC(O)CN2C(=O)C(NC(=O)CCCCCCCCCCN2CCCC(Nc3ncc(Cl)c(Nc4ccccc4S(=O)(=O)C(C)C)n3)C2)C(C)(C)C)cc1 (centres unmarked)	22Rv1	RNA-seq, refers to: STPG1 mRNA		concentration not given	reference: DMSO	log2 fold change	-2
Cc1cccc2c1N(C(=O)n1ccnn1)CC2	Arabidopsis thaliana		wild type	0.3 µM, seedlings		hypocotyl length	10.8 mm
O=C(N/N=C/c1ccc(C[n+]2ccccc2)cc1)c1cncc(C(=O)N/N=C/c2ccc(C[n+]3ccccc3)cc2)n1	myc22 MYC G4-DNA parallel	FRET melting		1 µM, K1 buffer, DNA 0.2 µM, together with: ds26 10 µM		ΔTm	9.5 ± 0.3 °C
C=CC(=O)N1[C@@H](c2ccc3c(c2)OCO3)c2[nH]c3ccccc3c2C[C@H]1C(=O)N1CCN(C)CC1	CCNE1 WT-3xFLAG:CDK2 complex	co-IP TMT proteomics, refers to: TICRR	HEK-293T	20 µM, 6 h	reference: DMSO	log2 fold change	-0.0145
C=CC(=O)Nc1cccc(Cn2ncc3cnc(Nc4cnn(CCOC)c4)nc32)c1	RET human	binding, KINOMEscan		100 nM	lower = stronger binding	percent of control	67%
CCN(C(=O)c1cc(F)ccc1Oc1nncnc1N1CCC2(C1)CN([C@H](CCCN(C)CCOC)C(C)C)C2)C(C)C	A673		muscle	168 h		GI50	> 10000 nM
COc1cc(O)ccc1CCC(c1ccc(O)cc1)c1cc2c(c(C)c1O)OC(c1ccc(O)cc1)CC2 (mixture of isomers)		refers to: RvE3	human whole blood	30 µM, together with: Escherichia coli		amount	44 ± 31 pg/mL blood
COC1CN([C@H]2CC[C@H]([C@@]3(C)Oc4c(Cl)cc(C(=O)NCc5c(SC)cc(C)[nH]c5=O)c(C)c4O3)CC2)C1		RNA-seq, refers to: PPP1R9A	human, whole blood	dose not given, 24 h	reference: pretreatment baseline	log2 fold change	4.35
COc1ccc(C(=O)CCc2cc(C(CCc3ccc(O)cc3OC)c3ccc(O)cc3)c(O)cc2OC)cc1 (racemic)			human blood	10 µM, together with: A23187		20-OH-LTB4 level	579 ± 264 pg/mL
CC(C)c1ccc(N(C)c2ccc3c(c2)OCC[C@H]3CNc2cnccc2C(=O)O)cc1	WSUDLCL2	cell growth or viability, ATP luminescence		7 days		IC50	5.67 nM
O=C(N/N=C/c1ccc2c(ccc[n+]2Cc2ccccc2)c1)c1cncc(C(=O)N/N=C/c2ccc3c(ccc[n+]3Cc3ccccc3)c2)n1	myc22 MYC G4-DNA parallel	FRET melting		1 µM, K1 buffer, DNA 0.2 µM, together with: ds26 10 µM		ΔTm	18.9 ± 0.3 °C
C=C(NC(=O)c1csc(-c2nc3c(cc2O)-c2nc(cs2)C(=O)NC(C(C)O)C(=O)NC(=C(C)OC)c2nc(cs2)C(=O)NC2c4nc(cs4)C(=O)NC(COC(=O)c4c5c6c(cccc6n4O)COC(=O)C(OC4CC(C)(O)C(N(C)C)C(C)O4)C2OC5)c2nc-3cs2)n1)C(N)=O (centres unmarked)	Staphylococcus epidermidis		methicillin-resistant, 10 isolates	pH 7.0		MIC50	0.0156 µg/mL (≈ 0.0109 µM)
O=C(N/N=C/c1cc[n+](Cc2ccccc2)c2ccccc12)c1ccc2ccc3ccc(C(=O)N/N=C/c4cc[n+](Cc5ccccc5)c5ccccc45)nc3c2n1	myc22 MYC G4-DNA parallel	FRET melting		1 µM, K1 buffer, DNA 0.2 µM		ΔTm	21.8 ± 0.9 °C
O=C(Oc1cc(OC(=O)c2cc(O)c(O)c(O)c2)c2ccccc2c1)c1cc(O)c(O)c(O)c1	herpes simplex virus 2	ELISA, refers to: IL-6, TNF-α	333, BALB/c mice, genital herpes model, serum	15 and 30 mg/kg/day, 6 days post infection		serum cytokine level	decreased
C[n+]1ccc(/C=N/NC(=O)c2cccc(C(=O)N/N=C/c3cc[n+](C)c4ccccc34)n2)c2ccccc21	myc22 MYC G4-DNA parallel	FRET melting		1 µM, K1 buffer, DNA 0.2 µM, together with: ds26 10 µM		ΔTm	25 ± 0.3 °C
NCCOCCO.O=C(O)C(Cl)Cl	Eclipta prostrata			15 mg/mL, 21 days, pre-emergence, greenhouse		herbicidal inhibition	0%

Excerpt of the above:
Compound	target or system	test	system	conditions	scale	measurement	result
O=C(N/N=C/c1ccc2c(ccc[n+]2Cc2ccccc2)c1)c1ccc2ccc(C(=O)N/N=C/c3ccc4c(ccc[n+]4Cc4ccccc4)c3)nc2n1	myc22 MYC G4-DNA parallel	FRET melting		1 µM, K1 buffer, DNA 0.2 µM, together with: ds26 10 µM		ΔTm	14.3 ± 0.7 °C
COc1cc(O)ccc1CCC(c1ccc(O)cc1)c1cc2c(c(C)c1O)OC(c1ccc(O)cc1)CC2 (mixture of isomers)		refers to: RvE3	human whole blood	30 µM, together with: Escherichia coli		amount	44 ± 31 pg/mL blood
O=C(N/N=C/c1ccc2c(ccc[n+]2Cc2ccccc2)c1)c1cncc(C(=O)N/N=C/c2ccc3c(ccc[n+]3Cc3ccccc3)c2)n1	myc22 MYC G4-DNA parallel	FRET melting		1 µM, K1 buffer, DNA 0.2 µM, together with: ds26 10 µM		ΔTm	18.9 ± 0.3 °C
Cc1ncsc1-c1ccc(C(C)NC(=O)C2CC(O)CN2C(=O)C(NC(=O)CCCCCCCCCCN2CCCC(Nc3ncc(Cl)c(Nc4ccccc4S(=O)(=O)C(C)C)n3)C2)C(C)(C)C)cc1 (centres unmarked)	22Rv1	RNA-seq, refers to: STPG1 mRNA		concentration not given	reference: DMSO	log2 fold change	-2
